Measurements gathered from unrelated publications.
Every numbered part comes from another study and shows a few of its results, in no order.

Set 1
Target: Interferon regulatory factor 7, full length, phosphomimetic (IRF7, Homo sapiens, UniProt Q92985, residues 1-503, S471D/S472D/S475D/S476D/S477D/S483D/S484D/S487D)
UniProt Q92985, sequence (whole entry, unmodified, looked up): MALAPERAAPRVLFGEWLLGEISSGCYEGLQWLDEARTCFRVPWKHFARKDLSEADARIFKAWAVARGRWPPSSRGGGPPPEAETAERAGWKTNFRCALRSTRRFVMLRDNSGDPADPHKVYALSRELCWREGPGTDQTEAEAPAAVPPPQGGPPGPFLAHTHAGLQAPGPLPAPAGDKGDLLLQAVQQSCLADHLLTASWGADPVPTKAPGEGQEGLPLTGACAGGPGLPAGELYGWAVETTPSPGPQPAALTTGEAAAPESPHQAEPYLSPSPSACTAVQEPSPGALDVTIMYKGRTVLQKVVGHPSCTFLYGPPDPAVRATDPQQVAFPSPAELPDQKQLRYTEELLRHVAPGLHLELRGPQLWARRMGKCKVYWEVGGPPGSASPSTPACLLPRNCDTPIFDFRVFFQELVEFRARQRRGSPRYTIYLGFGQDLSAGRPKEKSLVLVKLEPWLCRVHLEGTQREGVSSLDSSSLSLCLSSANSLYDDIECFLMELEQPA
Technique: protein-binding microarray
Form: double-stranded DNA, one strand shown
Medium: in vitro
Tested at: 2200 nM top
Notes: 60-bp whole probe
Together with: salmon DNA 0.4 mg/ml
Reference: random background probes
Reading: higher = stronger binding
Constant ends, left off below: GCCTAGCAC … GTCTTGATTCGCTTGACGCTGCTG
| Sequence | fitted relative affinity |
| --- | --- |
| TTAGAACTCAGACTGGATTAGTGCTAG | -0.452 z-score |
| GACGGTCTCGGTATCGCGACGTGCTAG | 0.205 z-score |
| GACGGACCGGGGTATCGGGACGTGCTA | -1.02 z-score |
| GACGGTACCGGGTTTCGGGACGTGCTA | 0.875 z-score |
| GACGATTTCAGTCTCGAGCCGTGCTAG | 0.65 z-score |
| GACGGTATCGACTATTGGGACGTGCTA | -0.0698 z-score |
| GACGGTCTCAGACTGGAGACGTGCTAG | -0.418 z-score |
| TCAAATCTCTTTCCTTAACTGTGCTAG | 1.2 z-score |
| TCTCTTTTATTTTTTTTATTGTGCTAG | 1.63 z-score |
| TTAGAATTGGGGACTGGATTAGTGCTA | -0.184 z-score |
| TCAGATTTCGGGTATCGATTAGTGCTA | 3.18 z-score |
| GACGATATCGGGTATCGTGACGTGCTA | 0.344 z-score |
| TTATGTTTCCTTCTCCTTTAGTGCTAG | 3.38 z-score |
| TTAGGTTTCGGCTATCGGTTAGTGCTA | 3.22 z-score |
| TTAGGACCGCTTATCCTTTAGTGCTAG | 0.265 z-score |
| TTAGATTTCAGTTCCGGTTAGTGCTAG | 2.85 z-score |
| TCAATTCGTCATTTCACACTGTGCTAG | 1.82 z-score |
| GACGAACTGAGAATGGAGACGTGCTAG | -0.0866 z-score |
| TCATAAAATGGACACTGTACTGTGCTA | -0.402 z-score |
| TTAGATTTAGGGTATCGATTAGTGCTA | -0.372 z-score |
| GACGGACTTGGGTTTCGGGACGTGCTA | 0.825 z-score |
| GACGTTATCGGGACTGGAGACGTGCTA | 0.061 z-score |
| GACGGTAGCGGTATCGGGACGTGCTAG | -0.384 z-score |

Set 2
Target: RING finger protein unkempt homolog, zinc fingers 1-6, SBP tag (UNK, Homo sapiens, UniProt Q9C0B0, residues 30-357)
UniProt Q9C0B0, sequence (30-357, looked up): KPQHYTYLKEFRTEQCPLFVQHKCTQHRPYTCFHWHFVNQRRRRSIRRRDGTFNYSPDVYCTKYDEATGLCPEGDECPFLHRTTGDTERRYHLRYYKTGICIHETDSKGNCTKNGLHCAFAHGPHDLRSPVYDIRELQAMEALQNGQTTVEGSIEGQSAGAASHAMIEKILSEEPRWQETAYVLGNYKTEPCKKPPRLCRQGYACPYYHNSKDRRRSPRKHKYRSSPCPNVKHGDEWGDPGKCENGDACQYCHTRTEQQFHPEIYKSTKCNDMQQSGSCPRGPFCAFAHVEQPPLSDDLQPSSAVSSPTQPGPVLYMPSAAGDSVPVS
Technique: RNA Bind-n-Seq
Form: RNA
Medium: in vitro
Tested at: 100 nM
Notes: RNA with constant flanks, vertebrate orthologous sites, ends assumed
Reference: input RNA pool
Reading: higher = stronger binding
| Sequence | bound/input enrichment |
| --- | --- |
| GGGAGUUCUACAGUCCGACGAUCGUCUUUUCUAGGUUGGAUCUACUGGAAAAGUCAUAGGAAUUGAUCACAUUAAGGAAUUAGUAGAUGACUCAAUAAAUAACGUCAGAAAGGAUGAUCCAUUGCUUUUGUCUUCAGGGAGAGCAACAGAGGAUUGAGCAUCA | 0.815 ratio |
| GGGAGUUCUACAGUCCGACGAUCGUAAUGCAUUUUGUGACUUGGAUGUGGUCUGCACGGGAAGCUGCUGGCCUCUCCACAACGCAUAAAAUUUUUGUCUUUUUUUAAGAAGUUAAAACUGAAUUUAAUUUACUAAAACUCUAACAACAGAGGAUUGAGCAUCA | 0.471 ratio |
| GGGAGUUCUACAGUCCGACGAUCGGCAGGGCCCAGGCCCCUGUCGCUCAGAGUGGCCUAUUGGCCACUUAAGCCAGGCCAUUUUGGCUCCAUUUUUUAUUUUAACAGUGCCCUUACUACCCUGUAUAUAUGCCCGAGAUAUGGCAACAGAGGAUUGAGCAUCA | 1.31 ratio |
| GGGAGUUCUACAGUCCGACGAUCUUCUAGUACUUAAGCCAAUAGUUCUAAAAUGCUAUUUAUUUGUGUCUGUAAGUUUGUACAUAGUAAUUCCAGCCUCGUUGCGGAAUUAUUUUUUCAUGCAUUUGAGUUUUGCUUGAAAUUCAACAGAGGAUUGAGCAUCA | 0.393 ratio |
| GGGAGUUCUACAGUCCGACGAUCCGCUGGAUAGAUACCAGGAGCCACCACAGGCAAACUUUUGUUAAACUAAUUGUCAUCUGCACAACAGCUGAGCGGAAUAUUGACAUGUCCAAACUGCUGUCAGAUACUUAGACAGCUGGGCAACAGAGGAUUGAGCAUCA | 0.246 ratio |
| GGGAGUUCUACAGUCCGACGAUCGUGACUUUGGACGUCCGCUGUACCUGCUCGCAGAGGCUGCUUGGUGUGCGGCCCCGGCUGUGCUUUCUCUGCGUUCUCUGUGCGUCGUAGGCCUCCGCAGCCAACAUGCUCCGCCAGAUCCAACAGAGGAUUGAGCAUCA | 0.324 ratio |
| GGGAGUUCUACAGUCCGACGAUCUUGGGAACAGCUCUCCAAAUAGGAAUAGUAGUAAAAAAAAUAAGCAAAAUGAUAUUUGUAUAGAAAAAACAGAAGUUAAAUCAUGUAAAGUAAAUGCUACCAACCUUCCAGGUCCUAAAGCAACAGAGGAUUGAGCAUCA | 1.32 ratio |
| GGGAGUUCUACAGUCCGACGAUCGAGCUAAAGGAGUUAGCAUCUUUAUUUUUGUAUCAAAAAUAAAGGUUAUUUUGAAAUUAUUAGGAUUUUUACACAAUUCUGAAAUCUGUUGCUUUUGUAAACAAAUUGUUUGAUCUUAGUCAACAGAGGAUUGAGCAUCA | 0.793 ratio |

Set 3
Target: RNA binding protein fox-1 homolog 2, RRM domain, GST-SBP tag (RBFOX2, Homo sapiens, UniProt O43251-10, residues 100-194)
Technique: RNA Bind-n-Seq
Form: RNA
Medium: in vitro
Tested at: 365 nM
Notes: natural RNA segment, single round, ends assumed
Reference: no-protein control
Reading: higher = stronger binding
Construct (chain): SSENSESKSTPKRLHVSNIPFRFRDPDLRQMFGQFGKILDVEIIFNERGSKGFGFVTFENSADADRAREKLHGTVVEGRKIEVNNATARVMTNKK
| Sequence | RBNS enrichment (R) |
| --- | --- |
| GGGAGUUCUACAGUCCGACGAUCUGCUGUUUUCAAAUGAAGCCGUGUGGAUAUUUCAGCGUGCUGCUCCCUGUUGUCUGGAAACAGUUGAGUUGGAGCCUGUUGCCAAUGCUGCCCUCUGCCACCCUGUGGCUUGGAAUUCUCGGGUGCCAA | 0.613 |
| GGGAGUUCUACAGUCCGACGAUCGCCUUUGGCCCCCUUACUUUUCAGCAAGCCAGGGGCCCAGCAGUCAGCUCCCAGGAUGUGUGGGGAGCUGUCCCUGACUCUGCAGGCCUGAGCGAGUGUGUGAGCAUGCGUGGAAUUCUCGGGUGCCAA | 25 |
| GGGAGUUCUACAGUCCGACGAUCGAAUCUGCAUAUUAAUUACCUGAUGAUUAACUUAGAAAAGAGAUGGGAACUUAUUAUACAUGGACAUUUUUGAAUAUGCCUUAAUUUAGAAACUGAAAAAUAAUCCAGUGUGGAAUUCUCGGGUGCCAA | 0.932 |
| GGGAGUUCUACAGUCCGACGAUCAUGUUAUCUUUCUUGCAAGAGUAAUUUAAGCACAUGGGAAAGAUUCUAGACUUUUUGUUUCUUGCAACAACAGUGCCCUCUGCUGCUAGAAACCUUUUUCUACUUACUAUUGGAAUUCUCGGGUGCCAA | 0.347 |
| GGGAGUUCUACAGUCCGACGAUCAUGAUUAAGUGCAUUUAAUAUUGGUAAUUUAAUGAAAACCAUUCCUUGCCCAAUGGAUGUAUAAAUUUUUGAAAGAAUAAGCAGAAUUAUAUAAUAUGAAAUGCUAUGUAUGGAAUUCUCGGGUGCCAA | 0.512 |
| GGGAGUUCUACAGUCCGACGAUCACACAUAAAGACAUUAGCUGAAAAAAUAGAGUGAAAAUCAACUAUUUUUUACUCCCGCUAAUUUCAAUCAAUCGUUUUCAAAAGCGCACGAGAUUCACUCAUUGGAUUUAUGGAAUUCUCGGGUGCCAA | 0.59 |
| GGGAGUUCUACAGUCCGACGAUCAAGUUAACUAAAGUGAGAAUGAAAAAACAAAAUUCCAAGACACUUUUUAAAAGAAUGUCUGCCCUCACACACUUUUAUGGAUUUGUUUUUCUUACAUACCCAUCUUUUAAUGGAAUUCUCGGGUGCCAA | 0.411 |
| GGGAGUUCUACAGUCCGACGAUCCCCUCGAGUGUGCAUGCCACCCUGGGGCUCUUCUCAGUCCUGGGCCCAAGUCCCUGAAGCCUAGCAGAGGGCCAGCUCGGGUGGCCAGAACACCCCUUGGUGCAGGCCUCUGGAAUUCUCGGGUGCCAA | 7.26 |
| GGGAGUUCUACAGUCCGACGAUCUUGGCAGAGAUGGGGACUUGAGUGACCAUGUUGGGUUCCCUUCUUCUCCUUCUUGCAGGACACAAAUGAUAUCGCUUAGUCAUAAGUGUGGUAGACUGGAUCCUGACCAGUGGAAUUCUCGGGUGCCAA | 0.564 |

Set 4
Partner: ARF19 948-1086 (Arabidopsis thaliana, UniProt Q8RYC8)
Technique: two-hybrid
Reference: out of 4 tests
Reading: higher = firmer interaction
B1: IAA28 (Arabidopsis thaliana, UniProt Q9XFM0); chain MEEEKRLELRLAPPCHQFTSNNNINGSKQKSSTKETSFLSNNRVEVAPVVGWPPVRSSRRNLTAQLKEEMKKKESDEEKELYVKINMEGVPIGRKVNLSAYNNYQQLSHAVDQLFSKKDSWDLNRQYTLVYEDTEGDKVLVGDVPWEMFVSTVKRLHVLKTSHAFSLSPRKHGKE
B2: ARF8 699-811 (Arabidopsis thaliana, UniProt Q9FGV1); chain NSSNQTKNFVKVYKSGSVGRSLDISRFSSYHELREELGKMFAIEGLLEDPLRSGWQLVFVDKENDILLLGDDPWESFVNNVWYIKILSPEDVHQMGDHGEGSGGLFPQNPTHL
B3: IAA18 (Arabidopsis thaliana, UniProt O24408); chain MEGYSRNGEISPKLLDLMIPQERRNWFHDEKNSVFKTEEKKLELKLGPPGEEDDDESMIRHMKKEPKDKSILSLAGKYFSPSSTKTTSHKRTAPGPVVGWPPVRSFRKNLASGSSSKLGNDSTTSNGVTLKNQKCDAAAKTTEPKRQGGMFVKINMYGVPIGRKVDLSAHNSYEQLSFTVDKLFRGLLAAQRDFPSSIEDEKPITGLLDGNGEYTLTYEDNEGDKMLVGDVPWQMFVSSVKRLRVIKTSEISSALTYGNGKQEKMRR
B4: ARF6 790-935 (Arabidopsis thaliana, UniProt Q9ZTX8); chain SENPQSNTFVKVYKSGSFGRSLDISKFSSYHELRSELARMFGLEGQLEDPVRSGWQLVFVDRENDVLLLGDDPWPEFVSSVWCIKILSPQEVQQMGKRGLELLNSAPSSNNVDKLPSNGNCDDFGNRSDPRNLGNGIASVGGSFNY
B5: IAA34 (Arabidopsis thaliana, UniProt Q9C5X0); chain MYCSDPPHPLHLVASDKQQKDHKLILSWKKPTMDSDPLGVFPNSPKYHPYYSQTTEFGGVIDLGLSLRTIQHEIYHSSGQRYCSNEGYRRKWGYVKVTMDGLVVGRKVCVLDHGSYSTLAHQLEDMFGMQSVSGLRLFQMESEFCLVYRDEEGLWRNAGDVPWNEFIESVERLRITRRNDAVLPF
B6: ARF14 497-605 (Arabidopsis thaliana, UniProt Q9LQE8); chain SPTEIQSKQFSSTRTCTKVQMQGVTIGRAVDLSVLNGYDQLILELEKLFDLKGQLQARNQWEIAFTNNEEDKMLVGEDPWPEFCNMVKKIFIYSKEEVKNLKSRKSLSS
Residues (chain): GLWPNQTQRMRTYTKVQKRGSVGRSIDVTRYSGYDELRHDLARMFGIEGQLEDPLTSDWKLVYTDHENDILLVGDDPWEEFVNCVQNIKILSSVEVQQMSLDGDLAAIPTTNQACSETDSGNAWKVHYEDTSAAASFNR
| Sequence | positive tests |
| --- | --- |
| B1 (IAA28) | 4 |
| B2 (ARF8 699-811) | 1 |
| B3 (IAA18) | 4 |
| B4 (ARF6 790-935) | 0 |
| B5 (IAA34) | 3 |
| B6 (ARF14 497-605) | 0 |

Repeated from above (set 4):
| Sequence | positive tests |
| --- | --- |
| B1 (IAA28) | 4 |
| B5 (IAA34) | 3 |
| B3 (IAA18) | 4 |
| B6 (ARF14 497-605) | 0 |
| B4 (ARF6 790-935) | 0 |
